Results pooled from the literature.
A part holds a random share of what one study measured. “And” joins repeats or separate records; there may be more than shown.
Chain of UniProt Q15139 (whole entry, looked up): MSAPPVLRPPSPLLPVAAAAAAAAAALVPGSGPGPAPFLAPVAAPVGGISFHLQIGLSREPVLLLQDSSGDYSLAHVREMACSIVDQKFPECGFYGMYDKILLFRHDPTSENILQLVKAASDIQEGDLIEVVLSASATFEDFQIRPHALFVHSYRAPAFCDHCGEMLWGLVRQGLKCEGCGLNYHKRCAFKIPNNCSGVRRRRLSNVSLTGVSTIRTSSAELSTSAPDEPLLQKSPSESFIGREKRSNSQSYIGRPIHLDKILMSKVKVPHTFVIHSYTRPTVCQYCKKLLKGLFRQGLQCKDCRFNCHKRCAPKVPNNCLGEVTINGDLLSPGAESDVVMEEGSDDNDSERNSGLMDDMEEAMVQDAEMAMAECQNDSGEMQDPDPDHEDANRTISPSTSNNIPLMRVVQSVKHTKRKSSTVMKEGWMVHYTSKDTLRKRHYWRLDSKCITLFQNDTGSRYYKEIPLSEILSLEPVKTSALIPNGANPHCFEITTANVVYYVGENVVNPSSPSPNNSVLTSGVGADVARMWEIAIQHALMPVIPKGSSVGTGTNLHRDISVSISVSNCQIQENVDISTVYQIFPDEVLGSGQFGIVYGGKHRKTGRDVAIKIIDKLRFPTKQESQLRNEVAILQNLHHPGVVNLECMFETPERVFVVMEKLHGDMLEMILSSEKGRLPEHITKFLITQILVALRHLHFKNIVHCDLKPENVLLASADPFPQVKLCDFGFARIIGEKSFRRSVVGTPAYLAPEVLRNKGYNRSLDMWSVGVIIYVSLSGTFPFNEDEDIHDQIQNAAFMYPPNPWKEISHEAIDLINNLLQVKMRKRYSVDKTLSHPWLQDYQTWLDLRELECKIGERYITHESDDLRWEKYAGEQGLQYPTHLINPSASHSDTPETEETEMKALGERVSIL
Chain of UniProt Q96D53 (whole entry, looked up): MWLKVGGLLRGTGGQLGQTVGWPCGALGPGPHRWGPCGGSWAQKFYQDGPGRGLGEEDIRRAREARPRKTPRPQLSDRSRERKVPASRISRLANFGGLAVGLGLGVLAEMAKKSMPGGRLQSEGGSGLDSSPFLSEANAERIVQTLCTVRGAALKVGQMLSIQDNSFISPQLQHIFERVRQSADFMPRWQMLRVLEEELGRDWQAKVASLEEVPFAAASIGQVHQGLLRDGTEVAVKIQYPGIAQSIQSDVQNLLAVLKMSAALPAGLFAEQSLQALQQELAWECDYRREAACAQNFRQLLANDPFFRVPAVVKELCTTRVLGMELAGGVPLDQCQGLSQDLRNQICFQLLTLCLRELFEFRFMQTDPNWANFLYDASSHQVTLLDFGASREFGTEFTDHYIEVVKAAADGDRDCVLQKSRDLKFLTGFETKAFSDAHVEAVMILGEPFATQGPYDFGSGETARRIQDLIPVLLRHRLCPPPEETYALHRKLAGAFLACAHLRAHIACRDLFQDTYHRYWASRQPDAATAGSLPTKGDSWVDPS

Study 1 — read-out: enzyme activity; mode: inhibitor; concentration: 77 µM; reference: untreated
Target: DNA polymerase theta, ATPase domain (POLQ, Homo sapiens, UniProt O75417)
Chain of UniProt O75417 (whole entry, unmodified, looked up): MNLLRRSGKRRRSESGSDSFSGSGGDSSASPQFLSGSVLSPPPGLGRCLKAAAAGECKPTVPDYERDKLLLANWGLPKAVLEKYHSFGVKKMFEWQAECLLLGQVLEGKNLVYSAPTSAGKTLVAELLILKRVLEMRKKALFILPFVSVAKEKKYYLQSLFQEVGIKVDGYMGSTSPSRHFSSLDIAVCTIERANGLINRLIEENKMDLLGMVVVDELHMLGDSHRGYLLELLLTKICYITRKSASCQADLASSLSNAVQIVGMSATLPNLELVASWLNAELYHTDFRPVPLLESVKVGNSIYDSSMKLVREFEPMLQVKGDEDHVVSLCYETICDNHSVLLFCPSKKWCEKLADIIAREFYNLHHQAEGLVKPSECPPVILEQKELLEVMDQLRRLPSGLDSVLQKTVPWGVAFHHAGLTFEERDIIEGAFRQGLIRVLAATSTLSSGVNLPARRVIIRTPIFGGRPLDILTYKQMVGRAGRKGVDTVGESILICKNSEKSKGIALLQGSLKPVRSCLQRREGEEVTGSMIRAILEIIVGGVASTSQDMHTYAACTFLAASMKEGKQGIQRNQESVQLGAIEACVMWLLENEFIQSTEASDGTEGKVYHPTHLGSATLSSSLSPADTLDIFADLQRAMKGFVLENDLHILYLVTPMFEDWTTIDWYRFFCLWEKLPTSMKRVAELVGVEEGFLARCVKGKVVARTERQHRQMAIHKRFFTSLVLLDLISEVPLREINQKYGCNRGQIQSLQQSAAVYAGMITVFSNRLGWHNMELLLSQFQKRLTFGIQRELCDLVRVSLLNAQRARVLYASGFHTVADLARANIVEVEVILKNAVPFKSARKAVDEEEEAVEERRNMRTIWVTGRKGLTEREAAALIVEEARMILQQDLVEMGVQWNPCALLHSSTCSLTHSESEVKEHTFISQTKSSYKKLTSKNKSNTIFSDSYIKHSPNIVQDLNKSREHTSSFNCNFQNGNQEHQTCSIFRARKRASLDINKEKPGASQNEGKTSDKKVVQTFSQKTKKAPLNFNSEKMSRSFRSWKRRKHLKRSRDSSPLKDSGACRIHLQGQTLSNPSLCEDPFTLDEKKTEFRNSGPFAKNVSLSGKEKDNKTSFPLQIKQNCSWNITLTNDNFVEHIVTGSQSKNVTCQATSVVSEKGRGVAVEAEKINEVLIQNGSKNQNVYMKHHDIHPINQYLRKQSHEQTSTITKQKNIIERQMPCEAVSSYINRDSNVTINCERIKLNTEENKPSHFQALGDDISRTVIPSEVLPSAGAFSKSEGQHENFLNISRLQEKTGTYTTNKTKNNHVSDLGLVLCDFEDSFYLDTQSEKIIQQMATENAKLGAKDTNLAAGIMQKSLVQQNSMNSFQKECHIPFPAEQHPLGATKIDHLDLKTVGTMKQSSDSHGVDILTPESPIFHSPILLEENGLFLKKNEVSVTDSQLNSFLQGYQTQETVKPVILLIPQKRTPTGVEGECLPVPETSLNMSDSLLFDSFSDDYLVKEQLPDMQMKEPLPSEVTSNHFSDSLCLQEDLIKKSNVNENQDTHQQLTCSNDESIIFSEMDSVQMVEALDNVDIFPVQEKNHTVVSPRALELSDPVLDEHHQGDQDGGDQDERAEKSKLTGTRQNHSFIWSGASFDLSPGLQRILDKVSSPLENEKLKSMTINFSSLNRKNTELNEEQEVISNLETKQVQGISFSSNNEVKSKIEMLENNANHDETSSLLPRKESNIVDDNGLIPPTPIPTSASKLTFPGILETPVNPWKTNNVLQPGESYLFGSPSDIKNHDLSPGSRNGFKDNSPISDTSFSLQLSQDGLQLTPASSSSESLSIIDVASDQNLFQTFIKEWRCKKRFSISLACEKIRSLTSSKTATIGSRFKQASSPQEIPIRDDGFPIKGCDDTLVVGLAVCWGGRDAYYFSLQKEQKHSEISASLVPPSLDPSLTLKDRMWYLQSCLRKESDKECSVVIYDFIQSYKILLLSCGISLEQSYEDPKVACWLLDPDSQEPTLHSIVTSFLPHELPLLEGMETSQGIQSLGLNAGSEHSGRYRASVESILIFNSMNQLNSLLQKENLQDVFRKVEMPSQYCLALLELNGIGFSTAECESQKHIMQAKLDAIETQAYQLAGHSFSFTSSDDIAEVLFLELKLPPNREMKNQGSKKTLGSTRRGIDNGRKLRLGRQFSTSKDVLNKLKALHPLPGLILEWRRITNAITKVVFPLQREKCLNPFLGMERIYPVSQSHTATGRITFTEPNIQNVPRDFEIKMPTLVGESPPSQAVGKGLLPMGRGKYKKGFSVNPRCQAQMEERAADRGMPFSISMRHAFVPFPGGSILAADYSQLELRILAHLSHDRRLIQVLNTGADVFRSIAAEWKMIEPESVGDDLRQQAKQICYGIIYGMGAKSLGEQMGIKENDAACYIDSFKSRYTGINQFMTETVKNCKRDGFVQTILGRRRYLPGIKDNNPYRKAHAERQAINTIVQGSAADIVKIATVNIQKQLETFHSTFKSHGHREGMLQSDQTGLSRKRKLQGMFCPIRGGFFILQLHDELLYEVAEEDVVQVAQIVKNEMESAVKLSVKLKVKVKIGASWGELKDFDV
SMILES | remaining activity [%]
O=C(O)[C@H]1NCCC[C@H]1C(=O)O | 97.3
COC(=O)Nc1nc2cc([S+]([O-])c3ccccc3)ccc2[nH]1 (stereo not drawn) | 96.3
O=C(O)CN(CCN(CC(=O)O)CC(=O)O)CCN(CC(=O)O)CC(=O)O | 97
CO[C@@]1(NC(=O)C(C(=O)O)c2ccc(O)cc2)C(=O)N2C(C(=O)O)=C(CSc3nnnn3C)CO[C@@H]21 (stereo partly drawn) | 105
C[C@]12CC[C@@H]3c4ccc(O)cc4CC[C@H]3[C@@H]1CC[C@@H]2OC(=O)CCC1CCCC1 | 95.5

Study 2 — SMILES: C=CCc1ccc(O)c(-c2ccc(O)c(CC=C)c2)c1; read-out: chloride current
ANO1 del476-501/F628A: Anoctamin-1 (ANO1, Homo sapiens, UniProt Q5XXA6, del476-501/F628A)
Chain of UniProt Q5XXA6 (whole entry, unmodified, looked up): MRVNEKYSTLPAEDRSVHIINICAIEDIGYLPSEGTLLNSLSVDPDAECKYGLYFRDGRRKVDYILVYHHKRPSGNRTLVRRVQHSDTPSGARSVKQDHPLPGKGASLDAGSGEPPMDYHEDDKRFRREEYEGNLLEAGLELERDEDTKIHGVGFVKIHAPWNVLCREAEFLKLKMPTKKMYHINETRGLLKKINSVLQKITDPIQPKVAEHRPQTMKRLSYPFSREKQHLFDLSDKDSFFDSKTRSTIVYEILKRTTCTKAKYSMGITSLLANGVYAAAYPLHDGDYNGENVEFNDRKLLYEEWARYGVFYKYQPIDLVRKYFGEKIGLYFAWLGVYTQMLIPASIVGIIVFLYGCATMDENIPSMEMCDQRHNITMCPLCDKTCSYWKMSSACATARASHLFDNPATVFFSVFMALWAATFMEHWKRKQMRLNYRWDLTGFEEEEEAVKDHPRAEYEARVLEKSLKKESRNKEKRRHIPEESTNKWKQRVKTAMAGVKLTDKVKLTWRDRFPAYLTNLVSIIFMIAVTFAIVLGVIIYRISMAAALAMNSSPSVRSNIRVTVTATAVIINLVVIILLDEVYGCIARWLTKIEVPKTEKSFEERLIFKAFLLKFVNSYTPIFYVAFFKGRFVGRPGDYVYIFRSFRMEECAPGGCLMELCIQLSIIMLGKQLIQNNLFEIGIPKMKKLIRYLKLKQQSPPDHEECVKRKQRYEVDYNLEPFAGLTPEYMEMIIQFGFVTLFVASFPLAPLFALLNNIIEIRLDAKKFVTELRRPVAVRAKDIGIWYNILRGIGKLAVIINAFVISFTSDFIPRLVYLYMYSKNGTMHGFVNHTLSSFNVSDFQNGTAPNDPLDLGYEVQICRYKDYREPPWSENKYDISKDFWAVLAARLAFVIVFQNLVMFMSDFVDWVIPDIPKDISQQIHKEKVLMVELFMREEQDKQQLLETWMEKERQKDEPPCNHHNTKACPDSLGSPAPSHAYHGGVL
target | mode | technique | concentration | setting | with | normalized current
ANO1 del476-501/F628A |  | whole-cell voltage clamp | 3 µM | I-V at -80 mV | 4 µM Ca2+ | -0.641
Anoctamin-1 (ANO1, Homo sapiens, UniProt Q5XXA6, del476-501/K629A) |  | inside-out patch clamp | 10 µM | membrane voltage 20 mV |  | 0.0945
Anoctamin-1 (ANO1, Homo sapiens, UniProt Q5XXA6, del476-501/K430L) | inhibitor | whole-cell voltage clamp | concentration not given | K430L mutant |  | 0.406 and 0.367 and 0.349 and 0.447 and 0.396 and 0.443
ANO1 del476-501/F628A |  | whole-cell voltage clamp | 10 µM | concentration-response at -20 mV | 4 µM Ca2+ | -0.154
Anoctamin-1 (ANO1, Homo sapiens, UniProt Q5XXA6, del476-501/E659A) |  | inside-out patch clamp | 10 µM | membrane voltage 0 mV |  | -0.000855
Anoctamin-1 (ANO1, Homo sapiens, UniProt Q5XXA6, del476-501) |  | whole-cell voltage clamp | 3 µM | wild type, I-V at -40 mV | 4 µM Ca2+ | -0.291
ANO1 del476-501/F628A |  | whole-cell voltage clamp | 30 µM | concentration-response at -100 mV | 4 µM Ca2+ | -0.419

Study 3 — read-out: cell-free assay; technique: competition with immobilised ligand; concentration: 0.1 µM
Compound: CS(=O)(=O)N1CCCC(NC(=O)[C@H](CCC2CCCCC2)NC(=O)c2ccc(CNc3ncnc4c3nnn4-c3ccccc3)cc2)C1 (stereo partly drawn)
target | remaining binding [%]
PRKAA1 (Homo sapiens, UniProt Q13131) | 100
BMP2K (Homo sapiens, UniProt Q9NSY1) | 84
EGFR (Homo sapiens, UniProt P00533, del752-759) | 100
BMPR2 (Homo sapiens, UniProt Q13873) | 100
Ribosomal protein S6 kinase alpha-1, N-terminal kinase domain (RPS6KA1, Homo sapiens, UniProt Q15418) | 100
LYN (Homo sapiens, UniProt P07948) | 96
TYRO3 (Homo sapiens, UniProt Q06418) | 90
PAK1 (Homo sapiens, UniProt Q13153) | 100
MAP3K13 (Homo sapiens, UniProt O43283) | 100
COQ8B (Homo sapiens, UniProt Q96D53) | 100
Non-receptor tyrosine-protein kinase TYK2, JH1 (TYK2, Homo sapiens, UniProt P29597) | 99
FLT3 (Homo sapiens, UniProt P36888, D835Y) | 93
Tyrosine-protein kinase ABL1, phosphorylated (ABL1, Homo sapiens, UniProt P00519, Q252H) | 95
IRAK4 (Homo sapiens, UniProt Q9NWZ3) | 100
ROS1 (Homo sapiens, UniProt P08922) | 91
MAP3K9 (Homo sapiens, UniProt P80192) | 90
MYLK3 (Homo sapiens, UniProt Q32MK0) | 100
NEK3 (Homo sapiens, UniProt P51956) | 100
MARK3 (Homo sapiens, UniProt P27448) | 100
PIK3CA (Homo sapiens, UniProt P42336, Q546K) | 60
PRKD1 (Homo sapiens, UniProt Q15139) | 91

Study 4 — cell line: mouse MPNST tumor cells; technique: high-content nuclear imaging; refers to: cell number; concentration: 10 µM; time: 12 h; setting: mean of 2 replicates; reference: plate mean; direction: higher = more cells
SMILES | nuclei count
Cc1cc(C)cc(-c2cnc3cc(Cl)c(-c4cccc(O)c4)cc3c2OCCCN)c1 | -0.737 z-score
O=CN1CCC(C(=O)NCCN2CCC(=C3c4ccccc4C=Cc4ccccc43)CC2)CC1 | 6.79 z-score
Clc1cc2cc(c1)-c1cnn3ccc(nc13)NCCOCCO2 | 1.78 z-score
C[N+]1(C)CCC(=C(c2ccccc2)c2ccccc2)CC1 | 0.692 z-score
c1ccc(CNc2ncnc3nc[nH]c23)cc1 | -0.2 z-score
CCCCOc1ccc(CC(=O)NO)cc1 | 0.601 z-score
C=CCOc1ccc(C2CC(=O)Nc3nc(N)[nH]c(=O)c32)cc1OC (stereo not drawn) | -0.0465 z-score
CSc1nc(-c2ccnc(NC(C)c3ccccc3)c2)c(-c2ccc(F)cc2)[nH]1 (stereo not drawn) | 1.3 z-score

Further values, each from its own experiment
Structure (SMILES) | target | technique | concentration | setting | reference | quantity | value
CC(C)C[C@@H](C=O)NC(=O)[C@H](CC(C)C)NC(=O)[C@H](CC(C)C)NC(=O)OCc1ccccc1 | Membrane-associated tyrosine- and threonine-specific cdc2-inhibitory kinase (PKMYT1, Homo sapiens, UniProt Q99640) | immunoblotting | 0.1 µM | unit not given | untreated | protein level | 1.25

A few entries again (study 1):
SMILES | remaining activity [%]
CO[C@@]1(NC(=O)C(C(=O)O)c2ccc(O)cc2)C(=O)N2C(C(=O)O)=C(CSc3nnnn3C)CO[C@@H]21 (stereo partly drawn) | 105
C[C@]12CC[C@@H]3c4ccc(O)cc4CC[C@H]3[C@@H]1CC[C@@H]2OC(=O)CCC1CCCC1 | 95.5
COC(=O)Nc1nc2cc([S+]([O-])c3ccccc3)ccc2[nH]1 (stereo not drawn) | 96.3
